Results from different studies.
Every numbered part comes from another study and shows a few of its results, in no order.
UniProt P08069, sequence (whole entry, looked up): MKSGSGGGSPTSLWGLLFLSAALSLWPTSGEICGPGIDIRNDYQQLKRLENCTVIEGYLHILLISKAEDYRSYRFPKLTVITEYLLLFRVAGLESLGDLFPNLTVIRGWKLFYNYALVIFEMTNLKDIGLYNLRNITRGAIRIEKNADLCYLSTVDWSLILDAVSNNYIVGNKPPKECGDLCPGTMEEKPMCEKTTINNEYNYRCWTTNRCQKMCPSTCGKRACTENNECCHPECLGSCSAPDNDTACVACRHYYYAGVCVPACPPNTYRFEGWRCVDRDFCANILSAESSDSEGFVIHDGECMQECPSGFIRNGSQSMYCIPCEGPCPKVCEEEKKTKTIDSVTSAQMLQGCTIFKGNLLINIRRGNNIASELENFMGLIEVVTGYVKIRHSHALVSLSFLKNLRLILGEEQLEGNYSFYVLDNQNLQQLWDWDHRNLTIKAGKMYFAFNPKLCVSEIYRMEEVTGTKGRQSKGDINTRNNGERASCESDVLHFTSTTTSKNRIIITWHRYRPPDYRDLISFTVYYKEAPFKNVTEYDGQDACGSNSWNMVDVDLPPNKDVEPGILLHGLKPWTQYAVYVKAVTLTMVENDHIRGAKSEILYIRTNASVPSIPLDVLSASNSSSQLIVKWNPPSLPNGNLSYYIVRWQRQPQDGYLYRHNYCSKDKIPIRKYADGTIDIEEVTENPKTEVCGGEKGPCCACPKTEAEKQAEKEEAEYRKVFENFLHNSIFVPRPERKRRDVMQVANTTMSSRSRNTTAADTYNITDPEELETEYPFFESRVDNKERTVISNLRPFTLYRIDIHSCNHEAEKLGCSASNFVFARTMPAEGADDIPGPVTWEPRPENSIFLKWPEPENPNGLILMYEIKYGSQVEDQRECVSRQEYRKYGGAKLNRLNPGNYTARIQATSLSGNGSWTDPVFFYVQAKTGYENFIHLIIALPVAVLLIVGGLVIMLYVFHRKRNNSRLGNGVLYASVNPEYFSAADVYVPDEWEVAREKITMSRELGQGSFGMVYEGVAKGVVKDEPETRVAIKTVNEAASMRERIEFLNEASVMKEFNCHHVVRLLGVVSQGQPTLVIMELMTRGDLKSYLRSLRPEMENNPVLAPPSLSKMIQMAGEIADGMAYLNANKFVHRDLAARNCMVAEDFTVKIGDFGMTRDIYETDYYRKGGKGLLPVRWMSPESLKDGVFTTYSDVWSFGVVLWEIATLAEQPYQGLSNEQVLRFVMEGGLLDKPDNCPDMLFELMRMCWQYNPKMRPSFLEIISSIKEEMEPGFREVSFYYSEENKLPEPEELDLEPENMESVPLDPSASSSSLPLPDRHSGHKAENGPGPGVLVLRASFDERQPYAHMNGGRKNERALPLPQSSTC
UniProt O15197, sequence (whole entry, looked up): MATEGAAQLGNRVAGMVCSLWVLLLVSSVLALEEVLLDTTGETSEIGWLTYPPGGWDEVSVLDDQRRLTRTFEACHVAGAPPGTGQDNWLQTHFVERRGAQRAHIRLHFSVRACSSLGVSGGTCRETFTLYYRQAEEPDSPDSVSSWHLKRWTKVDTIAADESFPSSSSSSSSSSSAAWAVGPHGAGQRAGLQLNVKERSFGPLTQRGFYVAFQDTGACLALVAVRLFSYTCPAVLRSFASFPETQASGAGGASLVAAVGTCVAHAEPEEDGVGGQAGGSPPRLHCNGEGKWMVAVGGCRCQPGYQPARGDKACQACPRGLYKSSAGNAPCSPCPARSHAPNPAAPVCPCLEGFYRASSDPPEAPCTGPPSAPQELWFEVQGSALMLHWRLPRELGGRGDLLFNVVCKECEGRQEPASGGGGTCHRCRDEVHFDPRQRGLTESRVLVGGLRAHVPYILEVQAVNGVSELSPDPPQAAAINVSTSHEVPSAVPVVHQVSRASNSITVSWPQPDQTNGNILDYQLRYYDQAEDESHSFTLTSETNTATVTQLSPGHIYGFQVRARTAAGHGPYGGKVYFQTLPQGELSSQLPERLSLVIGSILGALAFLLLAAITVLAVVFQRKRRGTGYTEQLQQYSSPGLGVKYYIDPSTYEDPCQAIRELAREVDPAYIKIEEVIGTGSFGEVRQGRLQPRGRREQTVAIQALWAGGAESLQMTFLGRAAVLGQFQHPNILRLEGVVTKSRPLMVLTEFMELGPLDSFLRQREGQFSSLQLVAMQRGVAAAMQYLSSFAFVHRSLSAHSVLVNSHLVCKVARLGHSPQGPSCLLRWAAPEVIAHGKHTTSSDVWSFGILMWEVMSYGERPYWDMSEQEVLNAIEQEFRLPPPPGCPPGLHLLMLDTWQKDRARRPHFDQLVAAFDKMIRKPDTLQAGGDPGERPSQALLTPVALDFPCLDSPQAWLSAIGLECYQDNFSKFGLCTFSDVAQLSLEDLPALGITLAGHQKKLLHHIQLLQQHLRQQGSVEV
UniProt P20794, sequence (whole entry, looked up): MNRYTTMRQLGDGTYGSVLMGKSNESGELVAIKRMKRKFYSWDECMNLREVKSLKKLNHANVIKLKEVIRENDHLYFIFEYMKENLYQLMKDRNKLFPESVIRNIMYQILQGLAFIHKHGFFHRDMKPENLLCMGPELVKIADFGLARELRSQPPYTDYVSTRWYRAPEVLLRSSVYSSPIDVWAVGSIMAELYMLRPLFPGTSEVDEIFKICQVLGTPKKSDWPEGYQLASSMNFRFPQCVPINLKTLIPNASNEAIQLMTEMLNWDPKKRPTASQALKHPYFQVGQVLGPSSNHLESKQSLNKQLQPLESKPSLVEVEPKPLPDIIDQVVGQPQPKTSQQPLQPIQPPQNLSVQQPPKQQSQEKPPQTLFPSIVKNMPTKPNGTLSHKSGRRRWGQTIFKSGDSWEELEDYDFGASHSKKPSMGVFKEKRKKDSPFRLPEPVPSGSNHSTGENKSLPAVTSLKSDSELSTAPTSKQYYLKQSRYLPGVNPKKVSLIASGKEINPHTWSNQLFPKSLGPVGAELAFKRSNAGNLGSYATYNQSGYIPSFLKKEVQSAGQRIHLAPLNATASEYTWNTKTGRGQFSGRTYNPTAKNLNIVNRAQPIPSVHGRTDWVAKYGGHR
UniProt Q9UPE1, sequence (whole entry, looked up): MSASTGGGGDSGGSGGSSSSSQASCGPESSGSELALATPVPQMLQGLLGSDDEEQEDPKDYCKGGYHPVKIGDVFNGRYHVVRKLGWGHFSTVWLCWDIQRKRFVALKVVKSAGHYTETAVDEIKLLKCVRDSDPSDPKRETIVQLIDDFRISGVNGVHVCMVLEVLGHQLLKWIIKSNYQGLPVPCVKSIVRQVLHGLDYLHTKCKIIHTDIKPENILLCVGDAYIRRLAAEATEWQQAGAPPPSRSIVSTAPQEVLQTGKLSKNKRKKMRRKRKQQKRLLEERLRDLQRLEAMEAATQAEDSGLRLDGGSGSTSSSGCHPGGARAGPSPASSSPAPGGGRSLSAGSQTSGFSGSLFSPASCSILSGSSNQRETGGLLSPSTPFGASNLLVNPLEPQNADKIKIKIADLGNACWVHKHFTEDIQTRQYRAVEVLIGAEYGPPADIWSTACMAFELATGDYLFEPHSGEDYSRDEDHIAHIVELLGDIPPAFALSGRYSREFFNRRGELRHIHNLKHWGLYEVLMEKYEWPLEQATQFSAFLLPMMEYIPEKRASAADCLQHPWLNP
UniProt P23458, sequence (whole entry, looked up): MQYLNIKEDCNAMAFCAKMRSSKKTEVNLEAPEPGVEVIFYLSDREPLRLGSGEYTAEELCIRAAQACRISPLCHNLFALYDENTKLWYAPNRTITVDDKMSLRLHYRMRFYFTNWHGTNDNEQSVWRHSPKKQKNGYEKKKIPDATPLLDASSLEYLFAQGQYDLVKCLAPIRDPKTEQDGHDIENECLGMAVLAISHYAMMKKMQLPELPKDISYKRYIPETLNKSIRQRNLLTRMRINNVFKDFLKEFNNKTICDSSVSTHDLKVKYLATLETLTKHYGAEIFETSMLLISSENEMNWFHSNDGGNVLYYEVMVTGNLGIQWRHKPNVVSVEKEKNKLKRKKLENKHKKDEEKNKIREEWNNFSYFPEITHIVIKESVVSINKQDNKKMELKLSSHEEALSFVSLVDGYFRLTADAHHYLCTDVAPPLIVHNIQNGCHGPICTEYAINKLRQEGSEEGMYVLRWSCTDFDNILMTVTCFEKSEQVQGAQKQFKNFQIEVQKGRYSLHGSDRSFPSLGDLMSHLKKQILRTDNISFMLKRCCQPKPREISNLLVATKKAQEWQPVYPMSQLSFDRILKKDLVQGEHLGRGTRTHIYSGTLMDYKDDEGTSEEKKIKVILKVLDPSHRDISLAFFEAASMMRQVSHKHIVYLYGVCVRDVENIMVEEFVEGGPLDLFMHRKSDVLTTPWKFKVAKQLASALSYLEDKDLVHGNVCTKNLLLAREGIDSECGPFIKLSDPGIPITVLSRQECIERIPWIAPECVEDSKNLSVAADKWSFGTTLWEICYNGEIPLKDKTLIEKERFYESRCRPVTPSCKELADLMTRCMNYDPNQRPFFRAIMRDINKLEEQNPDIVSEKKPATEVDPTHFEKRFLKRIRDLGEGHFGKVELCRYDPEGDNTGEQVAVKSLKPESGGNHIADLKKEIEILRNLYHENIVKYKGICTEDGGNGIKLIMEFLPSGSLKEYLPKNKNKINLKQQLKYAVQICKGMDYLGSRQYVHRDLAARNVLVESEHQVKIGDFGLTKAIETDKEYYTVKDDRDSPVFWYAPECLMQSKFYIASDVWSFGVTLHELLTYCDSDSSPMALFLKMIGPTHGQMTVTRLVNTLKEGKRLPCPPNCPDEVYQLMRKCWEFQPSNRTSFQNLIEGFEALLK

Set 1
SMILES: Cn1nc(C(F)(F)F)cc1-c1cnc(N2CCc3cc(S(=O)(=O)Nc4c(F)cc(Cl)cc4F)cc(N4CCCC4=O)c32)nc1
Technique: competition with immobilised ligand
Tested at: 1 µM
PRKACA (Homo sapiens, UniProt P17612); cell-free assay — remaining binding: 100%.
It gave 94% for remaining binding (IGF1R (Homo sapiens, UniProt P08069); cell-free assay).
EGFR (Homo sapiens, UniProt P00533, G719C); cell-free assay — remaining binding: 100%.
For PIP5K1A (Homo sapiens, UniProt Q99755); cell-free assay: remaining binding read 100%.
The remaining binding was 100% (SRPK3 (Homo sapiens, UniProt Q9UPE1); cell-free assay).
The remaining binding was 100% (MAK (Homo sapiens, UniProt P20794); binding).
PRKACB (Homo sapiens, UniProt P22694); cell-free assay — remaining binding: 81%.
It gave 96% for remaining binding (Tyrosine-protein kinase JAK1, JH2 (JAK1, Homo sapiens, UniProt P23458); cell-free assay).
For EPHB6 (Homo sapiens, UniProt O15197); cell-free assay: remaining binding read 82%.

Set 2
Target: Dual specificity tyrosine-phosphorylation-regulated kinase 2 (DYRK2, Homo sapiens, UniProt Q92630)
Observed: enzyme activity
Action: inhibitor
Tested at: 0.5 µM
Relative to: control
Residues (Q92630 1-601): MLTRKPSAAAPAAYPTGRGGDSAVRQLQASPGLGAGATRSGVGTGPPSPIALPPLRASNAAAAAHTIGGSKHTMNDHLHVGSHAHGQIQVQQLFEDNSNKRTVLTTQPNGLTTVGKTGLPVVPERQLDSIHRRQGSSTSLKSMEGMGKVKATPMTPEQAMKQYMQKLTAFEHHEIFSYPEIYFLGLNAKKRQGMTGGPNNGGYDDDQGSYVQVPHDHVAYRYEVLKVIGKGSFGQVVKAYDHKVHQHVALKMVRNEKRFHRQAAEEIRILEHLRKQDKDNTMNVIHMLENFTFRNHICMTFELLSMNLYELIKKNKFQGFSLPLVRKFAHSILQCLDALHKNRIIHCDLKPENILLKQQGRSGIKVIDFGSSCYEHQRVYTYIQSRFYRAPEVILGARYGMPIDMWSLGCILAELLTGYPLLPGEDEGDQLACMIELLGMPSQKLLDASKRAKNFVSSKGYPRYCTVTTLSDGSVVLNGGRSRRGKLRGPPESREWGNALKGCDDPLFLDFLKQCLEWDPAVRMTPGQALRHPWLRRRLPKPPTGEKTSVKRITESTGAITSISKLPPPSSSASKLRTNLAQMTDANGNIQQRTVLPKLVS
The remaining activity of `c1cc(-c2cnn3cc(-c4ccc(OCCN5CCCCC5)cc4)cnc23)ccn1` is reported as 47%.
The remaining activity of `Clc1ccc(Nc2nnc(Cc3ccncc3)c3ccccc23)cc1` is reported as 103%.
`CCCCc1c(-c2ccc(O)cc2)[nH]c2nccnc12` gave a remaining activity of 93.1%.
The remaining activity of `Nc1nc(Nc2ccc(S(N)(=O)=O)cc2)nn1C(=S)Nc1c(F)cccc1F` is reported as 60.4%.
With `NC(=O)c1ccc(-c2nc(-c3ccc4c(c3)OCCO4)c(-c3ccccn3)[nH]2)cc1` the remaining activity was 103%.

Set 3
Structure (SMILES): CC(C)n1cnc(-c2ccc(F)cc2)c1-c1ncc(C(=O)Nc2ccc(N3CCN(C)CC3)cc2)[nH]1
Host: idiopathic pulmonary fibrosis patients
For phase 2a trial, item: synovitis; 30 mg once daily, grade 4: “adverse event incidence” read 0%.
For phase 2a trial, item: infection; 60 mg once daily, grade 3: “adverse event incidence” read 0%.
The “adverse event incidence” was 0% (dose not given, gastritis grade 5).
It gave 0% for “adverse event incidence” (phase 2a trial, item: drug eruption; dose not given, grade 3, all arms pooled).
For phase 2a trial, item: QRS axis abnormal; 30 mg once daily, grade 3: “adverse event incidence” read 0%.
The “adverse event incidence” was 0% (phase 2a trial, item: hydroxybutyrate dehydrogenase increased; 30 mg once daily, grade 4).
phase 2a trial, item: carotid intima-media thickening; 60 mg once daily, grade 3 — “adverse event incidence”: 0%.
The “adverse event incidence” was 0% (phase 2a trial, item: ventricular extrasystoles; dose not given, grade 1, all arms pooled).

Further values, each from its own experiment
`CC(=O)N[C@@H](Cc1c[nH]c2ccccc12)C(=O)N[C@@H](CCC(=O)C=[N+]=[N-])C(=O)OC(C)C`: “GI epithelial change score” 0 (histopathology; mouse C57BL/6 CES1-/-, GI tissue; subcutaneous, 0.26 mg/kg; direction not given).

For quick reference, copied from above (set 3):
The “adverse event incidence” was 0% (phase 2a trial, item: hydroxybutyrate dehydrogenase increased; 30 mg once daily, grade 4).
For phase 2a trial, item: QRS axis abnormal; 30 mg once daily, grade 3: “adverse event incidence” read 0%.
